Results from different studies.
Each line is one published result; not all experiments were run side by side. pIC50: −log10 of the molar value.
Sequence of UniProt P00519 (whole entry, unmodified, looked up): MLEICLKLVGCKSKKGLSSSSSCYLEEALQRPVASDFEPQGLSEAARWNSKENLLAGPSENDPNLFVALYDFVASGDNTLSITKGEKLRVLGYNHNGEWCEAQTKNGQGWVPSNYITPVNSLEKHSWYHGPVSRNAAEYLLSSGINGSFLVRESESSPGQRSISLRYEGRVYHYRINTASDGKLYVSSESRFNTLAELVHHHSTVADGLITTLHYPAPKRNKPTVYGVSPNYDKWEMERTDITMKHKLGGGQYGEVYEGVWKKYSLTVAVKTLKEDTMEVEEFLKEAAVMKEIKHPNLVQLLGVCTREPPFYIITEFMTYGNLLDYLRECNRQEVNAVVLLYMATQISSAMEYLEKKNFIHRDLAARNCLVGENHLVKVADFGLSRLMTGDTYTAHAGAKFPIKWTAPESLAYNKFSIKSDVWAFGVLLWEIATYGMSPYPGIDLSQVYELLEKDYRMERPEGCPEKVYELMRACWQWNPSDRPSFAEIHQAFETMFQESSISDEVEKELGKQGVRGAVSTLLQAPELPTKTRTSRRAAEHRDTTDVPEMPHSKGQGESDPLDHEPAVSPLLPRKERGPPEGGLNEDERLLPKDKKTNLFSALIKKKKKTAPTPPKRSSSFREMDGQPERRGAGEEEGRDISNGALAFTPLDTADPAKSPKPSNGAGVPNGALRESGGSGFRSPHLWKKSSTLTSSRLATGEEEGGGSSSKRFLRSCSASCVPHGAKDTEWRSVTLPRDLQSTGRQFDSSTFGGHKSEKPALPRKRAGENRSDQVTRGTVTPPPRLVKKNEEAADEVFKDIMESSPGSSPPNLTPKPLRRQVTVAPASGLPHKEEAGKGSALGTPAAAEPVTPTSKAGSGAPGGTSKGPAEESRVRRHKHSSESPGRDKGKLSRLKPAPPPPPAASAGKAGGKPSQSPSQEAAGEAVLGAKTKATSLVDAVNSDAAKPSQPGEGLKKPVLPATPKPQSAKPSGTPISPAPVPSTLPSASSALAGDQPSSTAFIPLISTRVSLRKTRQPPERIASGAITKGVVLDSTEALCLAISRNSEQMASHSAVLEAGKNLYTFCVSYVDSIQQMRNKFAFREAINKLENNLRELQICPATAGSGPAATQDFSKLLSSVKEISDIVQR
Sequence of UniProt Q13153 (whole entry, looked up): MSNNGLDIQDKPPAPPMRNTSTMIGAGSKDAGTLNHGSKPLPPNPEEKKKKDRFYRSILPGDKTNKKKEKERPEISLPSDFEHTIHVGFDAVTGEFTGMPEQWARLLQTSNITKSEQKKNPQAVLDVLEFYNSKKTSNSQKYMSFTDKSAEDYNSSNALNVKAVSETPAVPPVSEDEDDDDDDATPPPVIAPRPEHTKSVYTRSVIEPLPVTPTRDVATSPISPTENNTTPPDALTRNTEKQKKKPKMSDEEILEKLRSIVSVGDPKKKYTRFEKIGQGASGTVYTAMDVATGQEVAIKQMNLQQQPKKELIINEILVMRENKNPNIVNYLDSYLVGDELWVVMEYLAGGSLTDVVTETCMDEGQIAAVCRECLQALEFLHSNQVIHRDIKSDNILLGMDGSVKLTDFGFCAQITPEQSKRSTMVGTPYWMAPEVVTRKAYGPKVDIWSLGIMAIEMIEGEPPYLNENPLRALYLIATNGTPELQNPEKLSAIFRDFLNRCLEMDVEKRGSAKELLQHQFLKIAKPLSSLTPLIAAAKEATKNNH
Sequence of UniProt P36507 (whole entry, looked up): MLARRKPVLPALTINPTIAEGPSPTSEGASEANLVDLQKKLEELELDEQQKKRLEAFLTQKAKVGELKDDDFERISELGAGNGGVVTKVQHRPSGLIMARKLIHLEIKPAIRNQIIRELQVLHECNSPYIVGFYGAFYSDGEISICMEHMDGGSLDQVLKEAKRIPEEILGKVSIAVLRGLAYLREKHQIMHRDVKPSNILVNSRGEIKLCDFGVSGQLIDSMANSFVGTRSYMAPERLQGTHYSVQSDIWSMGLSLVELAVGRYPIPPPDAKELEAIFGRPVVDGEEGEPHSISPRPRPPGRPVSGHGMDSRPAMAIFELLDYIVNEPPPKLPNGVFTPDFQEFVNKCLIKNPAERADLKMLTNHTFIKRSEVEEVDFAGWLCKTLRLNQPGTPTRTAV
Sequence of UniProt Q00534 (whole entry, looked up): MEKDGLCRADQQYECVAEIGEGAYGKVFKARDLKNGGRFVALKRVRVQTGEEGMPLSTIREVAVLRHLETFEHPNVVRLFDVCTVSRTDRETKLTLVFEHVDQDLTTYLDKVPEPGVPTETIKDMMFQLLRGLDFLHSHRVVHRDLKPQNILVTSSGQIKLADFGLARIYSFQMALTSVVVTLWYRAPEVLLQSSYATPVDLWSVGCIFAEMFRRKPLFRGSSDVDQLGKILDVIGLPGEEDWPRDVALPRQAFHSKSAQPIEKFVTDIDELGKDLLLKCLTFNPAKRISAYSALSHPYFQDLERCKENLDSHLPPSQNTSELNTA

SMILES	tested on	test	setting	endpoint	result
CC1(C)CCC(CN2CCN(c3ccc(C(=O)NS(=O)(=O)c4ccc(NCC5CCOCC5)c([N+](=O)[O-])c4)c(Oc4cnc5[nH]ccc5c4)c3)CC2)=C(c2ccc(Cl)cc2)C1	MINO	cell growth or viability, ATP luminescence	48 h	pIC50	7.27
OCc1ccc(-c2nn(Cc3ccccc3F)c3ccccc23)o1	RBE	cell growth or viability, ATP luminescence		pIC50	5.92
CCCOc1ccc2c(C)c(CC)c(=O)oc2c1C	PC-3	cell growth or viability, MTT		pIC50	3.23
c1ccc2c(c1)ncn2Cn1cncn1	SH-SY5Y	cell growth or viability, MTT	24 h	pIC50	4.49
CS(=O)(=O)c1ccc(C(=O)Nc2ccc(Cl)c(-c3ccccn3)c2)c(Cl)c1	MB002	cell growth or viability	7 days	pIC50	< 5.00
Cc1cc(=O)c(-c2ccc(OCCSc3ccc(C(F)(F)F)cn3)cc2)c(C)[nH]1	HEK293	cell growth or viability		pIC50	< 5.00
COc1cc2c3c(n(CCCn4ccnc4)c(=O)c2cc1OC)-c1nc2c(cc1C3=O)OCO2	TC-71	cell growth or viability, MTS	72 h	pIC50	6.70
CC[C@@H]1C(=O)N(C)c2cnc(Nc3ccc(C(=O)N[C@H]4CC[C@H](N5CCN(CC6CC6)CC5)CC4)cc3OC)nc2N1C(C)C	MB002	cell growth or viability	7 days	pIC50	8.18
OCc1ccc(-c2nn(Cc3cccc(F)c3)c3ccccc23)o1	RBE	cell growth or viability, ATP luminescence		pIC50	5.92
COc1cc2c3c(n(CCCNCCO)c(=O)c2cc1OC)-c1nc2c(cc1C3=O)OCO2	TC-71	cell growth or viability, MTS	72 h	pIC50	6.71
CC(=O)N1CCC(Nc2cc(C(=O)NC[C@H](O)CN3CCc4ccccc4C3)ncn2)CC1	HD-MB03	cell growth or viability	7 days	pIC50	< 5.00
C=CC(=O)N1CCC(COCC(=O)N2CCN(c3nc(-c4cnc(N)nc4C(F)F)nc(N4CCOC[C@@H]4C)n3)CC2)CC1	Dual specificity mitogen-activated protein kinase kinase 2 (MAP2K2, Homo sapiens, UniProt P36507)	binding, competition with immobilised ligand	1 µM	remaining binding	99%
Cc1ccccc1Cn1nc(-c2ccc(CO)o2)c2ccccc21	RBE	cell growth or viability, ATP luminescence		pIC50	5.86
COC(=O)CN=c1scc(-c2ccccc2)n1-c1ccc(Cl)cc1	SiHa	cell growth or viability, MTT	72 h	pIC50	5.78
C=C(F)C(=O)N1CCN(c2nc(OC[C@@H]3CCCN3C)nc3c2CCN(c2cccc4cccc(Cl)c24)C3)C[C@@H]1CC#N	NCI-H1573	cell growth or viability, ATP luminescence		pIC50	5.28
Cc1cccc(Cn2nc(-c3ccc(CO)o3)c3ccccc32)c1	RBE	cell growth or viability, ATP luminescence		pIC50	5.60
CC(=NNC(=O)COc1ccc2c(C)c(Cc3ccccc3)c(=O)oc2c1C)c1ccc(Br)cc1	PC-3	cell growth or viability, MTT		pIC50	5.45
CCCCC(=O)Nc1ccc(-c2ccc3ncn(CCC)c(=O)c3c2)cn1	Tyrosine-protein kinase ABL1, non-phosphorylated (ABL1, Homo sapiens, UniProt P00519, F317I)	binding, competition with immobilised ligand	0.5 µM	remaining binding	98%
COc1cc(Nc2c(C#N)cnc3cc(OCCCN4CCN(C)CC4)c(OC)cc23)c(Cl)cc1Cl	MB002	cell growth or viability	7 days	pIC50	5.74
C=CCOc1ccc2c(C)c(CC)c(=O)oc2c1C	PC-3	cell growth or viability, MTT		pIC50	3.07
CC(Cl)=CCc1c(C)[nH]c2c(ccc3ccccc32)c1=O	HEK293	cell growth or viability		pIC50	< 5.00
COc1cnccc1Cn1nc(-c2ccc(CO)o2)c2ccccc21	RBE	cell growth or viability, ATP luminescence		pIC50	6.68
COC(=O)CN=c1scc(-c2ccccc2)n1-c1ccc(C)cc1	Panc 02.03	cell growth or viability, MTT	72 h	pIC50	4.59
CCc1c(C)c2ccc(OCC(=O)NNC(=S)Nc3ccccc3)c(C)c2oc1=O	PC-3	cell growth or viability, MTT		pIC50	4.15
COC(=O)CN=c1scc(-c2ccccc2)n1-c1ccc(OC)cc1	Panc 02.03	cell growth or viability, MTT	72 h	pIC50	4.58
OCc1ccc(-c2nn(Cc3cncnc3)c3ccccc23)o1	RBE	cell growth or viability, ATP luminescence		pIC50	5.98
CC[C@@]1(O)C(=O)OCc2c1cc1n(c2=O)Cc2cc3c(CN(C)C)c(O)ccc3nc2-1	MB002	cell growth or viability	7 days	pIC50	6.78

SMILES	tested on	test	setting	endpoint	result
NCc1ccc(-c2nn(Cc3ccncc3)c3ccccc23)o1	RBE	cell growth or viability, ATP luminescence		pIC50	6.22
CNc1ncc2c(/C=C/C(=O)N3CCC(OC)CC3)nn(Cc3cccc(C(F)(F)F)c3)c2n1	Serine/threonine-protein kinase PAK 1 (PAK1, Homo sapiens, UniProt Q13153)	enzyme activity, inhibitor, radiometric	1 µM	remaining activity	103%
O=C1C(=Nc2ccc(Cl)cc2)c2ccccc2N1Cc1ccc([N+](=O)[O-])cc1	L02	cell growth or viability, MTT	48 h	pIC50	4.71
COc1cc(Nc2nccc(-c3cnn4nc(OC)ccc34)n2)cc(C(F)(F)F)c1	OCI-AML-5	cell growth or viability, ATP luminescence		pIC50	6.07
CCC(C(=O)N1C(=O)C(=Nc2ccc(Cl)cc2Br)c2ccccc21)c1ccccc1 (centres unmarked)	L02	cell growth or viability, MTT	48 h	pIC50	< 4.00
CCc1c(C)c2ccc(OCc3nnc(S)n3N)c(C)c2oc1=O	PC-3	cell growth or viability, MTT		pIC50	3.93
COc1cc(-c2cncc3c2CN(C)Cc2cc(N4CCNCC4)ccc2-3)cc(OC)c1OC	Cyclin-dependent kinase 6, with cyclin D3 (CDK6, Homo sapiens, UniProt Q00534)	enzyme activity, inhibitor	1 µM	remaining activity	117%
OCc1ccc(-c2nn(Cc3ccc(Cl)cc3)c3ccccc23)o1	RBE	cell growth or viability, ATP luminescence		pIC50	5.80
Cc1cc([C@@H](C)Nc2ccccc2C(=O)O)c2nc(N3CCC(F)(F)CC3)c(C#N)c(=O)n2c1	Tyrosine-protein kinase ABL1, phosphorylated (ABL1, Homo sapiens, UniProt P00519)	binding, competition with immobilised ligand	10 µM	remaining binding	100%
CCCCN1CC[C@@H](CCC(O)c2cc(OCCC)nc3ccc(OC)cc23)[C@@H](CC)C1 (some centres unmarked)	HEK293	cell growth or viability		pIC50	< 5.00
S=C(Nc1ccccc1)Nc1ccc(Oc2nnc(-c3ccc(Cl)cc3)c3ccccc23)cc1	MCF7	cell growth or viability, MTT	2.5 µM, 24 h	viability	3.63%
Cc1cccc2nc(-c3ccc(-c4cccc(CNCCCN5CCCC5=O)c4)cc3)[nH]c12	HEK293	cell growth or viability		pIC50	< 5.00
CC(C)n1nc(-c2ccc3oc(N)nc3c2)c2c(N)ncnc21	MB002	cell growth or viability	7 days	pIC50	7.88
CCN(O)N=Nc1ccc(S(=O)(=O)Nc2onc(C)c2C)cc1		ABTS scavenging	60 µg/mL	inhibition	27.9%
COc1cc2c3c(n(CCCN4CCOCC4)c(=O)c2cc1OC)-c1nc2c(cc1C3=O)OCO2	TC-71	cell growth or viability, MTS	72 h	pIC50	6.12
CCCCCCCCCc1c(C)[nH]c2ccccc2c1=O	HEK293	cell growth or viability		pIC50	< 5.00
Cc1nc(Nc2ncc(C(=O)Nc3c(C)cccc3Cl)s2)cc(N2CC[C@H](O)C2)n1	HuT78	cell growth or viability, ATP luminescence	72 h	pIC50	< 5.00
COc1cc2c3c(n(CCCNC(C)C)c(=O)c2cc1OC)-c1nc2c(cc1C3=O)OCO2	RPMI-8226	cell growth or viability, MTS	72 h	pIC50	6.63
CCC(=O)N1CCN(c2ccc(-n3c(=O)ccc4cnc5ccc(-c6cnc7ccccc7c6)cc5c43)cc2C(F)(F)F)CC1	HD-MB03	cell growth or viability	7 days	pIC50	7.35
CC(C)C[C@H](NC(=O)[C@H](Cc1ccccc1)NC(=O)c1cnccn1)B(O)O	BT-20	cell growth or viability, ATP luminescence		pIC50	7.42
Cc1[nH]c(C)c(-c2ccc(OCc3cc(C(F)(F)F)cc(C(F)(F)F)c3)nc2)c(=O)c1Cl	HEK293	cell growth or viability		pIC50	< 5.00
CCN(O)N=Nc1ccc(S(=O)(=O)Nc2cc(C)on2)cc1		ABTS scavenging	120 µg/mL	inhibition	21.2%
Cc1[nH]c(C)c(-c2ccc(-c3ccccc3Cl)nc2)c(=O)c1Cl	HEK293	cell growth or viability		pIC50	< 5.00
Cn1nnc2c(C(N)=O)ncn2c1=O	HD-MB03	cell growth or viability	7 days	pIC50	< 5.00
COc1ccc(C#Cc2ccc(-c3c(C)[nH]c(C)c(Cl)c3=O)cc2)cc1	HEK293	cell growth or viability		pIC50	< 5.00
CC(=NNC(N)=S)c1ccc(Nc2nnc(-c3ccc(Cl)cc3)c3ccccc23)cc1	MCF7	cell growth or viability, MTT	0.312 µM	cell death	93.2%
